Experimental data from different studies.
Numbered parts are unrelated; each lists some results of a single study.
Chain of UniProt P9WI81 (whole entry, looked up): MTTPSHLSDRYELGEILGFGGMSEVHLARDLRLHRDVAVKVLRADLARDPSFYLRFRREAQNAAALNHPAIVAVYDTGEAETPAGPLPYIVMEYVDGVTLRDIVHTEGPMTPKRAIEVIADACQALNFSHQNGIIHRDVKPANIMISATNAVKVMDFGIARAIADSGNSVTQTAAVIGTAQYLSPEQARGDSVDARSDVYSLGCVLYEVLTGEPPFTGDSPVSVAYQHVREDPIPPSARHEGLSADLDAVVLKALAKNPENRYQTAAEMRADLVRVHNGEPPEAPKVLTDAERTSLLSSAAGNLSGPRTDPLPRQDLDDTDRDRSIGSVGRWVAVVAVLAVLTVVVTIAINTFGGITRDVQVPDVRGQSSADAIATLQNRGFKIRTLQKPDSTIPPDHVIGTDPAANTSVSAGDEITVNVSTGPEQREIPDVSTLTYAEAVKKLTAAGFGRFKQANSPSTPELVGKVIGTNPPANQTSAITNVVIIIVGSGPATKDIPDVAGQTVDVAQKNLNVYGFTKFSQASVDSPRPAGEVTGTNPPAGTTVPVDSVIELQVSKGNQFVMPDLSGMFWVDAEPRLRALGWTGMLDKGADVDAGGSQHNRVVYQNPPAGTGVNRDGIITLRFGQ

Block 1
Target: DNA polymerase theta, ATPase domain (POLQ, Homo sapiens, UniProt O75417)
Chain of UniProt O75417 (whole entry, unmodified, looked up): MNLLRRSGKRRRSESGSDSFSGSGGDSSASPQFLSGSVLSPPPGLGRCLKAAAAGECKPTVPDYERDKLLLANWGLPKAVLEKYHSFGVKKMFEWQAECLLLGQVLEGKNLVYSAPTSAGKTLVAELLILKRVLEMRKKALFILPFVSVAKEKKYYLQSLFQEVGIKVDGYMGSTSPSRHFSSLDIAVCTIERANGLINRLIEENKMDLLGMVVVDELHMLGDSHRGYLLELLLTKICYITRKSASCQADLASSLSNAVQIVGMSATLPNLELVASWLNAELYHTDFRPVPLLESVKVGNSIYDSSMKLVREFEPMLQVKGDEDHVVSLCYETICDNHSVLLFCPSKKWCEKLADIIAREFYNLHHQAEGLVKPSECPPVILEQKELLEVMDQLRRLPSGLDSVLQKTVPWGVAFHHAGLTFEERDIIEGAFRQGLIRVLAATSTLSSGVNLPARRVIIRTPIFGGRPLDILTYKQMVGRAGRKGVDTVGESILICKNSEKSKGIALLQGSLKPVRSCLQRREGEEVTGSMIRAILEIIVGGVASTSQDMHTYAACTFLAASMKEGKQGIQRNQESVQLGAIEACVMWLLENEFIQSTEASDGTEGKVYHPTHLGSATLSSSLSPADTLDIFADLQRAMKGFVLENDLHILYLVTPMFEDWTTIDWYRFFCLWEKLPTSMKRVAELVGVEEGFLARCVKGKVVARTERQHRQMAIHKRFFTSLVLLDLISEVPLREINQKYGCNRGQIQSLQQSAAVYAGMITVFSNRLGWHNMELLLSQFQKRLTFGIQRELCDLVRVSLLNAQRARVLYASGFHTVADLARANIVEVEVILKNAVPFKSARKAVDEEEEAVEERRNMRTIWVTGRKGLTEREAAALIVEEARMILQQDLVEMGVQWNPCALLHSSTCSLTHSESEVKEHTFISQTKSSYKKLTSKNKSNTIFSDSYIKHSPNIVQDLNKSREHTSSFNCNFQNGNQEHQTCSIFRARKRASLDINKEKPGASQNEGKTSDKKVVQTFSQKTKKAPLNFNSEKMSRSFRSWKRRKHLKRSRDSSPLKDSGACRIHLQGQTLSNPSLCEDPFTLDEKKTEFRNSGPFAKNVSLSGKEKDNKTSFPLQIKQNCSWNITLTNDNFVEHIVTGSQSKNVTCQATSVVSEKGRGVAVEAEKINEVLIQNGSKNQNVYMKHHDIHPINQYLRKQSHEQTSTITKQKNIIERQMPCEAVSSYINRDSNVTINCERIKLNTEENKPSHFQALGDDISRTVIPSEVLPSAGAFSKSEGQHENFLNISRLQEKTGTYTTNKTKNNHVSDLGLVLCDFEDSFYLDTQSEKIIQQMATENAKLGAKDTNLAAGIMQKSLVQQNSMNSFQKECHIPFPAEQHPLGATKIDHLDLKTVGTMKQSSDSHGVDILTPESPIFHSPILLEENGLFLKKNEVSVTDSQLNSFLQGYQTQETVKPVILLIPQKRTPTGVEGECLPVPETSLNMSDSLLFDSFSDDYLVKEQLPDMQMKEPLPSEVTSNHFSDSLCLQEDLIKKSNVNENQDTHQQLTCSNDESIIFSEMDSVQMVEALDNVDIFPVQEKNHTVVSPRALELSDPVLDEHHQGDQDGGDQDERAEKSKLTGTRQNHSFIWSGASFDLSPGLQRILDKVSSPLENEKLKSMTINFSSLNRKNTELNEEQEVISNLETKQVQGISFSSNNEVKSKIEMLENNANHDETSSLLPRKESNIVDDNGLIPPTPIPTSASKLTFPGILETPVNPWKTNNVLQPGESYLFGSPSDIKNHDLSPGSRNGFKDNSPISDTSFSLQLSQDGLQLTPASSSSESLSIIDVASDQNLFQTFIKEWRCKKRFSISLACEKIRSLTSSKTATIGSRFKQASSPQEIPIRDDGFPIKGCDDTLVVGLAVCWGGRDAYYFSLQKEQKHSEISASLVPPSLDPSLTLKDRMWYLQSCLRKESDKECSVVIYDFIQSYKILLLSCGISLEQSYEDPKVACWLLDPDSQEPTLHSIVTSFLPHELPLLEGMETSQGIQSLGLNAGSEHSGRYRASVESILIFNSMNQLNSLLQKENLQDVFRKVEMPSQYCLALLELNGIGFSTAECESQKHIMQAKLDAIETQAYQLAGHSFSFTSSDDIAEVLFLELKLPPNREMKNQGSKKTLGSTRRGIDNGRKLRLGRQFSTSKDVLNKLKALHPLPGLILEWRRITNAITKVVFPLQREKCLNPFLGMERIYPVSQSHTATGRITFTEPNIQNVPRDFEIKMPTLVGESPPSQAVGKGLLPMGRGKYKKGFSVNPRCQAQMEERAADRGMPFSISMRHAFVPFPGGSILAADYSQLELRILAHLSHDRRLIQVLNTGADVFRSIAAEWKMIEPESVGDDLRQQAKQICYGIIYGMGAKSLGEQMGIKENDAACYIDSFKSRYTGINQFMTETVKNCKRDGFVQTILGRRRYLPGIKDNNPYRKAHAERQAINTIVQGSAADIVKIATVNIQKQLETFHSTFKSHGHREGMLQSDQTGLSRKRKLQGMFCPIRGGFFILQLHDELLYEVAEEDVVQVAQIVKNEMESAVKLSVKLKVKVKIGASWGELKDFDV
Read-out: enzyme activity
Mode: inhibitor
Tested at: 77 µM
Baseline: untreated
SMILES	remaining activity [%]
Cn1c(O)c(-c2[nH]c3ccccc3c2N=O)c2ccc(Br)cc21	111
O=C(N[C@@H](Cc1ccccc1)C(=O)CCl)OCc1ccccc1	101
Cc1ccc(C(=O)N(CCCN)[C@@H](c2oc3cc(Cl)ccc3c(=O)c2Cc2ccccc2)C(C)C)cc1	101
COc1cc2c(cc1OC)CN(CCc1ccc(NC(=O)c3cc(OC)c(OC)cc3NC(=O)c3cnc4ccccc4c3)cc1)CC2	97.3
Cc1ccc(Cl)cc1N(CC(=O)Nc1c(F)cccc1F)S(C)(=O)=O	99.9
COc1ccc(C2=N[C@H](c3ccc(Cl)cc3)[C@H](c3ccc(Cl)cc3)N2C(=O)N2CCNC(=O)C2)c(OC(C)C)c1	99.7
CCC(=O)[C@@]1(C)[C@H](C)C[C@H]2[C@@H]3CCC4=CC(=O)C=C[C@]4(C)[C@H]3[C@@H](O)C[C@@]21C	104
CCc1c(Cl)c(O)c(Cl)c(O)c1C(=O)O[C@H]1[C@H](O)[C@H](OC)[C@H](OC/C2=C\C=C\C[C@H](O)/C(C)=C/[C@H](CC)[C@@H](O[C@@H]3OC(C)(C)[C@@H](OC(=O)C(C)C)[C@H](O)[C@@H]3O)/C(C)=C/C(C)=C/C[C@@H]([C@@H](C)O)OC2=O)O[C@@H]1C	93.2

Block 2
Structure (SMILES): CC(C)n1cnc(-c2ccc(F)cc2)c1-c1ncc(C(=O)Nc2ccc(N3CCN(C)CC3)cc2)[nH]1
method	refers to	species	route	dose	setting	patients with TEAE [%]
phase 2a trial		patients with idiopathic pulmonary fibrosis		30 mg once daily	endocrine disorders SOC, grade 5	0
phase 2a trial		patients with idiopathic pulmonary fibrosis		dose not given	nervous system disorders SOC, grade 3, all arms	0
phase 2a trial		idiopathic pulmonary fibrosis patients	oral	30 mg once daily	LDL increased, grade 3	0
phase 2a trial		patients with idiopathic pulmonary fibrosis		30 mg once daily	skin papilloma, maximum intensity grade 4	0
phase 2a trial		idiopathic pulmonary fibrosis patients	oral	60 mg once daily	GLDH increased, grade 3	0
phase 2a trial		patients with idiopathic pulmonary fibrosis		dose not given	endocrine disorders SOC, grade 4, all arms	0
	atopic dermatitis	idiopathic pulmonary fibrosis patients		60 mg once daily		0
phase 2a trial		idiopathic pulmonary fibrosis patients	oral	30 mg once daily	ESR increased, grade 2	0

Block 3
Cell line: mouse MPNST tumor cells
Method: high-content immunofluorescence imaging
Refers to: nuclear SOX9
Tested at: 10 µM
Time: 12 h
Setting: mean of 2 replicates
Baseline: DMSO control
Reading: higher = more nuclear SOX9
SMILES	nuclear SOX9 intensity
CCn1c(=O)[nH]c2ccccc21	104 % of DMSO
CC1(C)NC(=O)N(c2ccc([N+](=O)[O-])c(C(F)(F)F)c2)C1=O	101 % of DMSO
CCOc1ccc(-c2nc(-c3cccc4c3CCC4NCCO)no2)cc1OCC (stereo not shown)	217 % of DMSO
O=C(Nc1ccccc1)C12CC1C(=NO)c1ccccc1O2 (stereo not shown)	109 % of DMSO
CC(C)[C@H](O)C(=O)N[C@@H](C)C(=O)N[C@@H]1C(=O)N(C)CCc2ccccc21	103 % of DMSO
COc1ccc2c(c1)c(CC(=O)OCC(=O)O)c(C)n2C(=O)c1ccc(Cl)cc1	96.5 % of DMSO
O=C(NCc1cccc(O)c1)Nc1nc(-c2ccncc2)cs1	110 % of DMSO
N#Cc1ccc(COC[C@H]2O[C@@H](n3c(NCc4ccc(Cl)c(Cl)c4)nc4c(N)ncnc43)[C@H](O)[C@@H]2O)cc1	98.8 % of DMSO

Mixed results
Structure (SMILES)	target	read-out	method	tested at	measurement	result
CN([C@@H]1CCc2c(CC(=O)O)c3cc(S(C)(=O)=O)ccc3n2C1)S(=O)(=O)c1ccc(F)cc1	Serine/threonine-protein kinase PknB (pknB, Mycobacterium tuberculosis, UniProt P9WI81)	cell-free assay	competition with immobilised ligand	1 µM	remaining binding	100%

For quick reference, copied from above (block 2):
method	refers to	species	route	dose	setting	patients with TEAE [%]
phase 2a trial		patients with idiopathic pulmonary fibrosis		30 mg once daily	skin papilloma, maximum intensity grade 4	0
phase 2a trial		idiopathic pulmonary fibrosis patients	oral	60 mg once daily	GLDH increased, grade 3	0
phase 2a trial		patients with idiopathic pulmonary fibrosis		dose not given	endocrine disorders SOC, grade 4, all arms	0
